{"data": "Results from different studies", "note": "Numbered parts are unrelated; each lists some results of a single study. Positions count from the first letter of the parent shown.", "UniProt Q8WTQ7, sequence (whole entry, looked up)": "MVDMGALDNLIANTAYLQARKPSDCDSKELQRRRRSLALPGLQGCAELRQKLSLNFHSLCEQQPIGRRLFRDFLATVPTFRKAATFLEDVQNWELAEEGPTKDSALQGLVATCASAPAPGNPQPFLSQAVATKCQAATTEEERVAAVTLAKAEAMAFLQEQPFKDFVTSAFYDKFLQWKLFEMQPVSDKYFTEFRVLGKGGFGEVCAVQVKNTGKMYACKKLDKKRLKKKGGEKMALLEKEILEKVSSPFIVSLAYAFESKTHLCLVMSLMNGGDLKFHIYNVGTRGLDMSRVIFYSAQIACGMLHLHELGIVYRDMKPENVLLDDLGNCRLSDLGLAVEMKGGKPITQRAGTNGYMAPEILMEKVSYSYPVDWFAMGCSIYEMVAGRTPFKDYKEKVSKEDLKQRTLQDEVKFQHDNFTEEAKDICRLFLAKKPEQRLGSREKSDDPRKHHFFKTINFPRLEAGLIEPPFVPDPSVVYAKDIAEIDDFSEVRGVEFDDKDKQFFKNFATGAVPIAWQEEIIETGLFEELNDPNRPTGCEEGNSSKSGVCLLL", "UniProt P07949, sequence (whole entry, looked up)": "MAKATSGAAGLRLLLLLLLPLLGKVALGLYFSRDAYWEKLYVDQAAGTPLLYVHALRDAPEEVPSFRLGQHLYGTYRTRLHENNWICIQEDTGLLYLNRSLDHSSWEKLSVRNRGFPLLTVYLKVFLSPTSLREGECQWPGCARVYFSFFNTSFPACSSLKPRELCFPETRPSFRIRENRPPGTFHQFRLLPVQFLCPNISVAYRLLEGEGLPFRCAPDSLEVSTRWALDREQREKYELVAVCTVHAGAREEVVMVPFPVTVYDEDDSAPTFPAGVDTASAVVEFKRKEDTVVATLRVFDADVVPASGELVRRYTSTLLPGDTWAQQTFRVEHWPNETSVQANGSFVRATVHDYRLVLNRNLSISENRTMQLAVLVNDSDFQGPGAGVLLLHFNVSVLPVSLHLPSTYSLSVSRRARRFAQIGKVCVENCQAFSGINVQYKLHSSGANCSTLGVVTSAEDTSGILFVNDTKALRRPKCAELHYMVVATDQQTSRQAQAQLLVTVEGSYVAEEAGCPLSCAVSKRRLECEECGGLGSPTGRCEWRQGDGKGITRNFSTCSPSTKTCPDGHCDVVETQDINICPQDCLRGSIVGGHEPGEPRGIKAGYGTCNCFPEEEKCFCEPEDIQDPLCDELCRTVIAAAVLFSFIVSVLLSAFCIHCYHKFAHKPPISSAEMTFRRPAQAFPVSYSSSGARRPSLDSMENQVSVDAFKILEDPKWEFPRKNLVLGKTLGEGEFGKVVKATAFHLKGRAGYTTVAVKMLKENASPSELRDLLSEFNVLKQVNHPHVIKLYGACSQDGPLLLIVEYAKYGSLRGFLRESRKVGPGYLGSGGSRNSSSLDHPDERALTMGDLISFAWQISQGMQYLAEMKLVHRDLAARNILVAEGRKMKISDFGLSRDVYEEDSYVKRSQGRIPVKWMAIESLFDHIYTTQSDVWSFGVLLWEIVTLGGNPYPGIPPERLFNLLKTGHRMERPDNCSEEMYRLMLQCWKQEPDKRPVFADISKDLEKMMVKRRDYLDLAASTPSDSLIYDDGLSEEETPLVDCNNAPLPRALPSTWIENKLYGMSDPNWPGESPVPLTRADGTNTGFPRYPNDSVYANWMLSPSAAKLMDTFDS", "UniProt Q9BYT3, sequence (whole entry, looked up)": "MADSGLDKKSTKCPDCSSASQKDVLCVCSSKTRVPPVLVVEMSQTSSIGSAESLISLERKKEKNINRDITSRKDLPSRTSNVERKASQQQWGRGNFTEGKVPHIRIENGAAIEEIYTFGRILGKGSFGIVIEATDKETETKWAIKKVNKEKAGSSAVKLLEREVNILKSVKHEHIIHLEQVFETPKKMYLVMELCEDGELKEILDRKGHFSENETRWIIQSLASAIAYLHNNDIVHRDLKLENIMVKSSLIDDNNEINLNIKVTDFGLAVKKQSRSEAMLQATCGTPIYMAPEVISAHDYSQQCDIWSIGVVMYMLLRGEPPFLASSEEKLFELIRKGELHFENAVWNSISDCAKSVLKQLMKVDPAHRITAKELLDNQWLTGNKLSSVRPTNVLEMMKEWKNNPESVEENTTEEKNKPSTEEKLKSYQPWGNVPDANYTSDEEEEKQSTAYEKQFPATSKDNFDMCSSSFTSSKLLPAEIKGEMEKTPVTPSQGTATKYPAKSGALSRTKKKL", "UniProt P06241, sequence (whole entry, looked up)": "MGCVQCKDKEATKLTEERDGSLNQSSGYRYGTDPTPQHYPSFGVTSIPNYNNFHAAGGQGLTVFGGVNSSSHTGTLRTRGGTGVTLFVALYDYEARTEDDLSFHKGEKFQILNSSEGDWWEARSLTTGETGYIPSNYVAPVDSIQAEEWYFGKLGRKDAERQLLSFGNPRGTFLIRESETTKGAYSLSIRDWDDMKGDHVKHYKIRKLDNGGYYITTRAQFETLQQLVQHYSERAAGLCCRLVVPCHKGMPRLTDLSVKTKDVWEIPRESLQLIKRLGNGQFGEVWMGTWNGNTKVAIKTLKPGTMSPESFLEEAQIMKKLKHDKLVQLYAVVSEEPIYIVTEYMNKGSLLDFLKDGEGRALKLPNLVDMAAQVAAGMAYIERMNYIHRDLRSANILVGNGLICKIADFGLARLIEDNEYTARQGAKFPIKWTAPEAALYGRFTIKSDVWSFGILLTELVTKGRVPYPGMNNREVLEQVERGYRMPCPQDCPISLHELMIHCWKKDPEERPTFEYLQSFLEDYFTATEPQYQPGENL", "UniProt Q9UF33, sequence (whole entry, looked up)": "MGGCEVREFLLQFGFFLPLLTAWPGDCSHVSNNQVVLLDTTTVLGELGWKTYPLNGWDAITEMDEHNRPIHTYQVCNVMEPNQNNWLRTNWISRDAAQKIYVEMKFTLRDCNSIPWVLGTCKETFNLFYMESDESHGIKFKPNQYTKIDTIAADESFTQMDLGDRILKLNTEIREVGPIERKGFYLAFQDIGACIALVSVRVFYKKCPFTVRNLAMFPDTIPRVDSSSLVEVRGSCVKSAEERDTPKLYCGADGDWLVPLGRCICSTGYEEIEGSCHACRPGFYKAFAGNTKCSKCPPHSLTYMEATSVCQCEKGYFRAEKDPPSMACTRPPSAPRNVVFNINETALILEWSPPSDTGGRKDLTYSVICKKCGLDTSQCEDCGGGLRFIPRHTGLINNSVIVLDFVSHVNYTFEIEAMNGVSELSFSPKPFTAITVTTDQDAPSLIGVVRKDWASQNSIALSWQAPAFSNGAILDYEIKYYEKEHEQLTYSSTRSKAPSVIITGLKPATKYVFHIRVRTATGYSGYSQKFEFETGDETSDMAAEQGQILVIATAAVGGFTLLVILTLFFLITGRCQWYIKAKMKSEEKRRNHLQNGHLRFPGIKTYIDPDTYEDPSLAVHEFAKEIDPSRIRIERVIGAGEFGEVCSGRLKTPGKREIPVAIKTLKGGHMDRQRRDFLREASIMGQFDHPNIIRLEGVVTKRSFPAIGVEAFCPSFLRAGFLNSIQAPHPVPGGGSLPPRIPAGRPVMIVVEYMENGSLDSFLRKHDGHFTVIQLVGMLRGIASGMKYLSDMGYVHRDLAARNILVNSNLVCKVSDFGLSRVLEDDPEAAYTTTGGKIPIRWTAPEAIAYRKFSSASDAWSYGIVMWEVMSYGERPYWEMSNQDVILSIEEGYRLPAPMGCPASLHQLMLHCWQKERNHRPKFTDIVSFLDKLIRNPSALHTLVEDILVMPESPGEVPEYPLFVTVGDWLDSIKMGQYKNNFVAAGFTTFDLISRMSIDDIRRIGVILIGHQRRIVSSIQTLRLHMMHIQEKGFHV", "UniProt Q9FGV1, sequence (whole entry, looked up)": "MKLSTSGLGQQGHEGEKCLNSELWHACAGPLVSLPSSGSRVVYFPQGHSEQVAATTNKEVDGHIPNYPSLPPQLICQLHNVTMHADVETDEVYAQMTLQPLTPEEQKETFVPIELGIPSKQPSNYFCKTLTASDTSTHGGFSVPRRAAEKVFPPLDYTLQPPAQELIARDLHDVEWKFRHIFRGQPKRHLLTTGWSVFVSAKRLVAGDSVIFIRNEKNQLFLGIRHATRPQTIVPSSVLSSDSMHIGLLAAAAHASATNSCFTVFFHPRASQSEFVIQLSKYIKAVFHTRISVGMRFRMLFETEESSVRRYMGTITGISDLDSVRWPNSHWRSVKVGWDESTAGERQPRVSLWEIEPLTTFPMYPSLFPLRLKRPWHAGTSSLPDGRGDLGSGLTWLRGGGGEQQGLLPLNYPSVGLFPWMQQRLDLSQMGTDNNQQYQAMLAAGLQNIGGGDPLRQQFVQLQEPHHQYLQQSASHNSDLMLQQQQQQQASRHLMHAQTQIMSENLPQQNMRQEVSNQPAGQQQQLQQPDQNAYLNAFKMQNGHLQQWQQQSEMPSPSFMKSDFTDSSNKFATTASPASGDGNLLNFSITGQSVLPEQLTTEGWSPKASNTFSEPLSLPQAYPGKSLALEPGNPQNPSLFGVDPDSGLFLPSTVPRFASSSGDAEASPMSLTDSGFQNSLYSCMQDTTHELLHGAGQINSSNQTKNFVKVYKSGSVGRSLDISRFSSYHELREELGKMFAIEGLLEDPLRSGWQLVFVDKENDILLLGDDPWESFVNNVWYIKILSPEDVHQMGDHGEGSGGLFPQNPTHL", "UniProt Q13163, sequence (whole entry, looked up)": "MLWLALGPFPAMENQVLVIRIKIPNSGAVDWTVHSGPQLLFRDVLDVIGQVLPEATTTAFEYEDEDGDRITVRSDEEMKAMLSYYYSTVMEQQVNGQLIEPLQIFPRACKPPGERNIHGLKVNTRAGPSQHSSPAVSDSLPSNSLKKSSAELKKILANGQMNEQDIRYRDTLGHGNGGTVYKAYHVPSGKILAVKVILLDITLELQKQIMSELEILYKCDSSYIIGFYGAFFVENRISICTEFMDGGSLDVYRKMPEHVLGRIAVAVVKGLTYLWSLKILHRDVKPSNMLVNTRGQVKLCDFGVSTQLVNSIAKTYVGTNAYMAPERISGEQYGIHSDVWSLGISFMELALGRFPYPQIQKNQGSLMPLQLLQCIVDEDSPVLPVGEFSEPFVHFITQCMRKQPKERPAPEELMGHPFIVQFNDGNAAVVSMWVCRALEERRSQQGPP"}
{"data": "Set 1", "species": "mouse", "medium": "microsomes or S9", "tested at": "2 µM", "time": "0.5 h"}
{"SMILES": "CN(n1cnc2ccsc2c1=O)S(C)(=O)=O", "remaining compound [%]": 95}
{"SMILES": "COc1ccc(-c2c(-c3ccccc3)nn(-c3cccc4ccccc34)c2N(C)C)cc1OC", "remaining compound [%]": 1.06}
{"SMILES": "COc1cc(-c2csc(N)n2)cc(Br)c1O", "remaining compound [%]": 43.5}
{"SMILES": "O=C(NCC1CCCO1)c1ccc(NC(=O)c2nc(-n3cnnc3)ccc2Br)cc1 (stereo not shown)", "remaining compound [%]": 75.1}
{"SMILES": "CCOC1CC(N(C)C(=O)Nc2c(C)noc2C)C12CCCC2 (stereo not shown)", "remaining compound [%]": 8.19}
{"SMILES": "OCCCN(CCO)c1ccc2cccc(Br)c2n1", "remaining compound [%]": 1.87}
{"SMILES": "COc1ccc(OC)c(NC(=O)c2cc3sccc3n2Cc2ccccc2)c1", "remaining compound [%]": 0.136}
{"SMILES": "CNC(=O)c1cc(Br)nn1-c1ncccc1Cl", "remaining compound [%]": "> 100"}
{"SMILES": "Cc1nc(-c2nn(C)c(C)c2Cl)n(-c2ccc(F)cc2F)n1", "remaining compound [%]": 10.8}
{"SMILES": "Cc1nc(CCNCc2csc(-c3ncccn3)n2)cs1", "remaining compound [%]": 42.2}
{"SMILES": "CCOc1ccccc1NC(=O)c1cc2sccc2n1C", "remaining compound [%]": 0.0411}
{"SMILES": "CCOc1cc(CNC(C)(C)C)c(Cl)cc1OC(C)C", "remaining compound [%]": 0.235}
{"SMILES": "COc1ccc(-c2c(-c3ccccc3)nn(-c3ccc(Cl)cc3Cl)c2N(C)C)cc1OC", "remaining compound [%]": 25.4}
{"SMILES": "Cc1ccc(C2c3nc[nH]c3CCN2C(=O)Nc2ccc(C#N)cc2)cc1F (stereo not shown)", "remaining compound [%]": 33.4}
{"SMILES": "Cc1ccc(-c2nn(C(C)(C)C)c(N)c2C#N)cc1", "remaining compound [%]": 20.2}
{"SMILES": "CS(=O)(=O)c1nc(-c2ccc(Br)cc2)n[nH]1", "remaining compound [%]": 80.9}
{"SMILES": "Cc1nnc2c(N3CCN(C(=O)c4n[nH]c5c4CCCC5)CC3)nccn12", "remaining compound [%]": 0.0275}
{"SMILES": "COc1ccc(CC(=O)OCCn2cc(Br)ccc2=O)nc1", "remaining compound [%]": 2.24}
{"SMILES": "Cn1ncc2c(NNC(=O)c3ccc(O)cc3)ncnc21", "remaining compound [%]": 80.1}
{"SMILES": "CN(C)C[C@H]1CC[C@H](Nc2ncc3ccc(=O)n(C4CCCCCC4)c3n2)CC1", "remaining compound [%]": 10}
{"SMILES": "O=c1ccc(Br)cn1Cc1ccccc1Oc1ccccc1", "remaining compound [%]": 0.302}
{"data": "Set 2", "Molecule": "B1 (IAA16)", "method": "two-hybrid", "reading": "higher = firmer interaction", "B1": "IAA16 (Arabidopsis thaliana, UniProt O24407); chain MINFEATELRLGLPGGNHGGEMAGKNNGKRGFSETVDLKLNLSSTAMDSVSKVDLENMKEKVVKPPAKAQVVGWPPVRSFRKNVMSGQKPTTGDATEGNDKTSGSSGATSSASACATVAYVKVSMDGAPYLRKIDLKLYKTYQDLSNALSKMFSSFTIGNYGPQGMKDFMNESKLIDLLNGSDYVPTYEDKDGDWMLVGDVPWEMFVDSCKRIRIMKGSEAIGLAPRALEKCKNRS"}
{"partner": "ARF18 482-602 (Arabidopsis thaliana, UniProt Q9C5W9)", "how to read": "reference: out of 3 tests", "positive tests": 0}
{"partner": "ARF5 788-902 (Arabidopsis thaliana, UniProt P93024)", "how to read": "reference: out of 4 tests", "positive tests": 4}
{"partner": "ARF8 699-811 (Arabidopsis thaliana, UniProt Q9FGV1)", "how to read": "reference: out of 4 tests", "positive tests": 4}
{"partner": "ARF4 660-788 (Arabidopsis thaliana, UniProt Q9ZTX9)", "how to read": "reference: out of 4 tests", "positive tests": 0}
{"partner": "ARF6 790-935 (Arabidopsis thaliana, UniProt Q9ZTX8)", "how to read": "reference: out of 4 tests", "positive tests": 3}
{"partner": "ARF7 1030-1164 (Arabidopsis thaliana, UniProt P93022)", "how to read": "reference: out of 4 tests", "positive tests": 3}
{"partner": "IAA32 (Arabidopsis thaliana, UniProt Q8RYC6)", "how to read": "reference: out of 4 tests", "positive tests": 2}
{"data": "Set 3", "SMILES": "O=C(NS(=O)(=O)c1ccc(NCC2CCOCC2)c([N+](=O)[O-])c1)c1ccc(N2CCN(Cc3ccc(C(F)(F)F)cc3-c3ccc(Cl)cc3)CC2)cc1Oc1cnc2[nH]ccc2c1", "observed": "cell-free assay", "method": "competition with immobilised ligand", "tested at": "1 µM"}
{"target": "SIK3 (Homo sapiens, UniProt Q9Y2K2)", "remaining binding [%]": 76}
{"target": "EPHA6 (Homo sapiens, UniProt Q9UF33)", "remaining binding [%]": 100}
{"target": "MINK1 (Homo sapiens, UniProt Q8N4C8)", "remaining binding [%]": 84}
{"target": "FYN (Homo sapiens, UniProt P06241)", "remaining binding [%]": 100}
{"target": "MTOR (Homo sapiens, UniProt P42345)", "remaining binding [%]": 100}
{"target": "PIK3CG (Homo sapiens, UniProt P48736)", "remaining binding [%]": 86}
{"target": "RET (Homo sapiens, UniProt P07949)", "remaining binding [%]": 96}
{"target": "STK33 (Homo sapiens, UniProt Q9BYT3)", "remaining binding [%]": 100}
{"target": "PHKG2 (Homo sapiens, UniProt P15735)", "remaining binding [%]": 83}
{"target": "GRK7 (Homo sapiens, UniProt Q8WTQ7)", "remaining binding [%]": 78}
{"target": "MAP2K3 (Homo sapiens, UniProt P46734)", "remaining binding [%]": 80}
{"target": "MARK2 (Homo sapiens, UniProt Q7KZI7)", "remaining binding [%]": 100}
{"target": "GRK4 (Homo sapiens, UniProt P32298)", "remaining binding [%]": 100}
{"target": "HUNK (Homo sapiens, UniProt P57058)", "remaining binding [%]": 100}
{"target": "MAP2K5 (Homo sapiens, UniProt Q13163)", "remaining binding [%]": 75}
{"target": "CDK16 (Homo sapiens, UniProt Q00536)", "remaining binding [%]": 67}
{"data": "Set 4", "target": "ABI1, truncated, D143A, DHFR fusion (Arabidopsis thaliana, UniProt P49597)", "method": "DHFR PCA, dose-response", "medium": "yeast", "notes": "Hill fit, not affinity, not high confidence", "together with": "(+)-ABA, dose series", "reading": "lower = more sensitive", "starting sequence": "PYL1, truncated, DHFR fusion (Arabidopsis thaliana, UniProt Q8VZS8); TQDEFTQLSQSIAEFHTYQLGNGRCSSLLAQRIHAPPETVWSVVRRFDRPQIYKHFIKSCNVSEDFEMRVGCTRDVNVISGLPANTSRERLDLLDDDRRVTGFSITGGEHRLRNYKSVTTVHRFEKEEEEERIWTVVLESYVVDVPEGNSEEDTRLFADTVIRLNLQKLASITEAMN"}
{"Substitution": "F56P", "ABA EC50": "233 µM"}
{"Substitution": "P146M", "ABA EC50": "204 µM"}
{"Substitution": "H16Y", "ABA EC50": "0.805 µM"}
{"Substitution": "V137Q", "ABA EC50": "31.1 µM"}
{"Substitution": "I105P", "ABA EC50": "1.09 µM"}
{"Substitution": "L8M", "ABA EC50": "5.25 µM"}
{"Substitution": "V40D", "ABA EC50": "0.437 µM"}
{"Substitution": "V143K", "ABA EC50": "13.7 µM"}
{"note": "Excerpt of the above (set 1):"}
{"SMILES": "Cc1nc(CCNCc2csc(-c3ncccn3)n2)cs1", "remaining compound [%]": 42.2}
{"SMILES": "CCOc1ccccc1NC(=O)c1cc2sccc2n1C", "remaining compound [%]": 0.0411}
{"SMILES": "CCOc1cc(CNC(C)(C)C)c(Cl)cc1OC(C)C", "remaining compound [%]": 0.235}
{"SMILES": "COc1ccc(-c2c(-c3ccccc3)nn(-c3ccc(Cl)cc3Cl)c2N(C)C)cc1OC", "remaining compound [%]": 25.4}
